Earlier results as cited in several papers.
Compare with care: the assays were run in different laboratories. Numbers after ± are the reported error.

Nc1ncnc2c1ncn2[C@@H]1O[C@H](CO)[C@@H](O)[C@H]1O  IC50 (HepG2; mRNA level, down-regulation, measured: PCSK9 mRNA): 18.5 µM
CCC(C)c1c(O)ccc2c1CC[C@@H]1[C@@H]2CC[C@]2(C)C(=O)CC[C@@H]12 (some centres unmarked)  EC50 (HT-22; cell protection; together with: glutamate 20 mM): 0.27 µM
CC(C)(O)c1cc2nn(CCS(C)(=O)=O)cc2cc1NC(=O)c1cccc(C(F)(F)F)n1  IC50 (mouse splenic cells; TNF-alpha secretion, inhibitor; 24 h, together with: LPS 1 µg/mL): 0.385 µM
C[C@@]12CCC[C@@](C)(C(=O)O)[C@H]1CC[C@@]13C[C@@H](CC[C@H]12)[C@@](O)(CO)C3  IC50 (neutrophils; superoxide production; together with: fMLF): 4 µM
CC[C@H](C)[C@H](N)C(=O)N[C@H](C(=O)NCC(=O)N[C@@H](CC(C)C)C(=O)N[C@@H](CCSC)C(=O)N[C@H](C(=O)NCC(=O)NCC(=O)N[C@H](C(=O)N[C@H](C(=O)N[C@H](C(=O)N[C@@H](C)C(=O)O)[C@@H](C)CC)C(C)C)C(C)C)C(C)C)[C@@H](C)CC  IC50 (PC-12, differentiated; amyloid-β42 neurotoxicity, inhibitor, measured: LDH release): 20 ± 4 µM
Nc1nc2[nH]c(CCCc3ccc(C(=O)N[C@@H](CCC(=O)O)C(=O)O)s3)cc2c(=O)[nH]1  IC50 (KB; cell growth; together with: folic acid 200 nM): > 1 µM
COc1ccc(CCN(C)C(=O)/C=C/c2ccc(O)cc2)cc1  IC50 (human neutrophils; elastase release; together with: fMLF): 13.5 µM
C[C@]12CC[C@@H]3c4ccc(O)cc4CC[C@H]3[C@@H]1CCC2=O  EC50 (HT-22; cell protection; together with: iodoacetic acid 20 µM): 2.09 µM
O=c1c2nc(Br)n([C@@H]3O[C@@H]4COP(=O)(O)O[C@H]4[C@H]3O)c2nc2[nH]c(-c3ccccc3)cn12  Km or Ki (PDE1C; cyclic nucleotide hydrolysis, substrate or inhibitor, isothermal titration calorimetry): 73.1 µM
CC(=O)N[C@H](CCNC(=O)c1cc(NC(=O)c2cc(NC(=O)c3cc(NC(=O)c4nccn4C)cn3C)cn2C)cn1C)C(=O)Nc1cn(C)c(C(=O)Nc2cc(C(=O)Nc3cc(C(=O)Nc4cc(C(=O)NCCCN(C)CCCN[14C](=O)c5cccc([14C](=O)O)c5)n(C)c4)n(C)c3)n(C)c2)n1  IC50 (LNCaP; non-radioactive analogue): 2.1 µM
Nc1ncnc2c1nc(Br)n2[C@@H]1O[C@@H]2COP(=O)(O)O[C@H]2[C@H]1O  Km or Ki (PDE1A; cyclic nucleotide hydrolysis, substrate or inhibitor, isothermal titration calorimetry): 32.8 µM
C=C(C)[C@@H](CC=C(C)C)C[C@@]12C[C@@H](CC=C(C)C)C(C)(C)[C@]3(C=CC(C)(C)OC3=C(C(=O)c3ccccc3)C1=O)C2=O  IC50 (human neutrophils; elastase release; together with: fMLF): 0.14 µM
C[C@@H]1CCCC(=O)N(C)/C=C/CC[C@@H](C)C(=O)O[C@@H](C(C)(C)C)C1  IC50 (mouse cerebrocortical neurons; Ca2+ oscillation, inhibitor): 3.7 µM
COc1ccc(N(C)c2nc(C)nc3ccn(C)c23)cc1  IC50 (MDA-MB-435; cell growth): 0.0043 ± 0.0003 µM
COc1ccc(N(C)c2nc(C)nc3[nH]ccc23)cc1  IC50 (HeLa; cell growth): 0.27 ± 0.026 µM
CO[C@@H]1[C@H](OC(=O)NC(=O)CCl)CC[C@]2(CO2)[C@H]1[C@@]1(C)O[C@@H]1CC=C(C)C  IC50 (HUVEC; cell proliferation): < 0.001 µM
O=c1c2ccccc2[se]n1-c1ccccc1  IC50 (Kupffer cells; superoxide generation): ~10 µM
COC1=CC(=O)c2cc(-c3ccc(OC)c(O)c3)c3cc(O)c(OC)cc3c2C1=O  IC50 (human neutrophils; elastase release; together with: fMLF): 4.2 µM
Nc1nc2[nH]c(CCCCCCc3ccc(C(=O)N[C@@H](CCC(=O)O)C(=O)O)cc3)cc2c(=O)[nH]1  IC50 (CHO PC43-10, human RFC-expressing; cell growth): > 1 µM
C=C1C(=O)O[C@H]2[C@H]1CC/C(C)=C/CC[C@@]1(C)O[C@@H]21  IC50 (DU-145; cell growth, inhibitor): 8.9 ± 4.6 µM
CN(C)[C@H]1C[C@@]23CC[C@@]4(O2)C(=CC[C@]2(C)[C@@H](c5ccc6ccncc6c5)CC[C@H]24)C=C3[C@@H](O)[C@@H]1O  IC50 (HUVEC; cell proliferation): 0.35 µM
Nc1nc2sc(CCCCc3ccc(C(=O)N[C@@H](CCC(=O)O)C(=O)O)cc3)cc2c(=O)[nH]1  IC50 (KB; cell growth; 96 h, together with: folic acid 200 nM): > 1 µM
COc1c2occc2cc2ccc(=O)oc12  IC50 (neuroblastoma cells; cell growth; without photoactivation): 56.3 µM
N=C(N)NCCC[C@H](NC(=O)[C@H](Cc1c[nH]c2ccccc12)NC(=O)[C@H](CCC(N)=O)NC(=O)[C@H](Cc1c[nH]c2ccccc12)NC(=O)[C@H](CCCNC(=N)N)NC(=O)[C@H](Cc1c[nH]c2ccccc12)NC(=O)[C@H](CCC(N)=O)NC(=O)[C@H](Cc1c[nH]c2ccccc12)NC(=O)[C@@H](N)CCCNC(=N)N)C(N)=O  IC50 (Caco-2; cell growth): 86 µM
Cc1cc2ccc3c(c2cc1O)CCC(=O)C3(C)C  IC50 (neutrophils; superoxide production; together with: fMLF): 4.4 µM
COC(=O)c1cc2c(C(F)(F)F)cc(-c3ccccc3)cc2n1O  IC50 (HeLa; cell growth, SRB; 72 h, normoxia): 33.4 ± 1 µM
